# Measured values of several laboratories.
# Compare with care: the assays were run in different laboratories. Several values in a cell are separate wells, animals, samples, runs or records. ± marks the error that the study gave.
# Genome polyprotein NS3 helicase domain: Genome polyprotein, NS3 helicase domain (Hepatitis C virus genotype 1b, UniProt Q9WMX2)
# ESR1: Estrogen receptor (ESR1, Homo sapiens, UniProt P03372)
# Sequence of UniProt P03372 (whole entry, looked up): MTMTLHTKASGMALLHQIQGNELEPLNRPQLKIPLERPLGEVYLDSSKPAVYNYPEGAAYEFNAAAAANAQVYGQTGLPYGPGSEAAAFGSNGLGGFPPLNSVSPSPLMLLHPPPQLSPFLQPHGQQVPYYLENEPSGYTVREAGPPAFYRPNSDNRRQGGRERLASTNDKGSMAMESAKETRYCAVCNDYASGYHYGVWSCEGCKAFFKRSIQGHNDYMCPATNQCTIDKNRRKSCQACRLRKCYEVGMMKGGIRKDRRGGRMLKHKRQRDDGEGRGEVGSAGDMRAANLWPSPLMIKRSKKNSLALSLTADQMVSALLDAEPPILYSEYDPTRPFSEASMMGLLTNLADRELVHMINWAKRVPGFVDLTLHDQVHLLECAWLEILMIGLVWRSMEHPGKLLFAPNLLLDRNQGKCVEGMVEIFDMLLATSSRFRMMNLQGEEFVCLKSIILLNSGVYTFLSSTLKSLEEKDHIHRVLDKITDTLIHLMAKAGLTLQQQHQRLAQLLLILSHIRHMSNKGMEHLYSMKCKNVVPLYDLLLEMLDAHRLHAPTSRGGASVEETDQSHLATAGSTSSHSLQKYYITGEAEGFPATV
# Glutamate receptor 2: Glutamate receptor 2 (Homo sapiens, UniProt P42262)
# WD repeat-containing protein 91 WD40 domain, residues 392–747: WD repeat-containing protein 91, WD40 domain, residues 392–747 (Homo sapiens, UniProt A4D1P6)
# Sequence of UniProt Q16774 (whole entry, looked up): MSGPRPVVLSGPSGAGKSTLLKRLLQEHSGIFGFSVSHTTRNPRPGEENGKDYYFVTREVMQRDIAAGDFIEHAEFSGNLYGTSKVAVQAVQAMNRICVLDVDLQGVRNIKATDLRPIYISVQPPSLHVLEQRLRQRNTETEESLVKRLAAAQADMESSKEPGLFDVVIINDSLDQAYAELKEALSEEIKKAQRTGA
# Sequence of UniProt A4D1P6 (whole entry, looked up): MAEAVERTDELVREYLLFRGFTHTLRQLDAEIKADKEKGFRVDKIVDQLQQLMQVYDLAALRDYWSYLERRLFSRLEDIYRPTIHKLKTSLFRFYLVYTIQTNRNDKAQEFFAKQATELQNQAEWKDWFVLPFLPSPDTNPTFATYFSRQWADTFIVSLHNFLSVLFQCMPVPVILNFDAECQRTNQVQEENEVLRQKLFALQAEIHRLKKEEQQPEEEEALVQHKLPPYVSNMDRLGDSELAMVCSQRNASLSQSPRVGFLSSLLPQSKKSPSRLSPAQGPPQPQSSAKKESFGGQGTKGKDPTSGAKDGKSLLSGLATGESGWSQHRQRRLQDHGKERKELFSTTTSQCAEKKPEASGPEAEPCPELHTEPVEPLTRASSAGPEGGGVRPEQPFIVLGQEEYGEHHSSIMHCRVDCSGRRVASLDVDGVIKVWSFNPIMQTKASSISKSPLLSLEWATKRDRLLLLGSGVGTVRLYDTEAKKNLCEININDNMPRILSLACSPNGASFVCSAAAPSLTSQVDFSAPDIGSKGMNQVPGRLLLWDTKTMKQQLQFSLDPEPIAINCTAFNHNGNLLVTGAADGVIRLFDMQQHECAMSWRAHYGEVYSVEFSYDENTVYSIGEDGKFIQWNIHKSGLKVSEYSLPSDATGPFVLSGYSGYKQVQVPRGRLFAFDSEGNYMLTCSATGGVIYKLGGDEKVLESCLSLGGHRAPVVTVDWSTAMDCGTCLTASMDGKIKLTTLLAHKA
# Sequence of UniProt P31941 (whole entry, looked up): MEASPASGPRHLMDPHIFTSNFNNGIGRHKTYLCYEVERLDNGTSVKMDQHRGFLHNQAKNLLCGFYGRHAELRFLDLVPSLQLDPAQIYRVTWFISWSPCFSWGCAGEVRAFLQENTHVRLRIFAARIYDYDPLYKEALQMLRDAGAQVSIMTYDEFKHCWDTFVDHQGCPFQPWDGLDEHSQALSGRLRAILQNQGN
# Sequence of UniProt Q93015 (whole entry, looked up): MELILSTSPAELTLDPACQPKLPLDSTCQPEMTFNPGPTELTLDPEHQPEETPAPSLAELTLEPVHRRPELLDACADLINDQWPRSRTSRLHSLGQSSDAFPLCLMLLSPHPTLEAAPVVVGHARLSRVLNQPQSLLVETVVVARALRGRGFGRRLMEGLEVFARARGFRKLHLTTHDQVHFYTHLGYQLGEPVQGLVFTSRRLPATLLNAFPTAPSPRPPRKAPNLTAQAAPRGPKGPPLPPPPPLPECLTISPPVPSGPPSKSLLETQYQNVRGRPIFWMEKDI
SMILES,target,test,system,conditions,scale,endpoint,value
CC(=O)C(=O)O,"Uncharacterized protein (Chromohalobacter israelensis, UniProt Q1QT90)","binder, thermal shift",,,,delta Tm,2.5 °C
Cc1cc(NC(=O)c2cccc(NC(=O)/C=C/CN(C)C)c2)ccc1Nc1nccc(-c2cccnc2)n1,"MAPK8 (Homo sapiens, UniProt P45983)","enzyme activity, inhibitor",,"0.1829 µM, 18 h, unit not given, with: GSH 10 mM pre-incubation",baseline: vehicle,remaining activity,0.965
CCN1CCN(c2cc(N3CCN(CC)CC3)nc(NCCNc3ccnc4cc(Cl)ccc34)n2)CC1,"Nuclear receptor subfamily 4 group A member 3, ligand-binding domain (Homo sapiens, UniProt Q92570)","reporter gene, Gal4 hybrid reporter",,10 µM,baseline: vehicle,activation,1.76 ± 0.09 fold
Nc1nc2c(ncn2[C@@H]2O[C@H](COP(=O)(O)O)[C@@H](O)[C@H]2O)c(=O)[nH]1,"GUK1 (Homo sapiens, UniProt Q16774)","enzyme activity, NADH-coupled",,"7.812 µM, with: NaCl 50 mM",,reaction velocity,-0.00802 µM/s and 0.0125 µM/s and 0.0154 µM/s
CCCC(CCC)C(=O)O[C@H]1C[C@H]2CC[C@@H](C1)[N+]2(C)C,Genome polyprotein NS3 helicase domain,"DNA binding, inhibitor",hepatitis C virus,"100 µM, with: Cy5-dT15 DNA",,inhibition,0%
CCN1CCC[C@H]1CNC(=O)c1c(O)c(Cl)cc(Cl)c1OC,"G-protein coupled receptor 61 (GPR61, Homo sapiens, UniProt Q9BZJ8)","β-arrestin recruitment, TANGO luminescence, refers to: GPR61",,concentration not given,baseline: basal luminescence,log2 fold change,0.163
N#Cc1cccc2c1CC[C@H]2NC(=O)c1ccc(-c2ccco2)[nH]1,"WD repeat-containing protein 91, residues 392–747 (Homo sapiens, UniProt A4D1P6)",SPR dose-response titration,,"concentration not given, 1:1 binding model",,binding,56%
CC1(C)C=Cc2c(ccc3c2OC[C@@H](c2ccc(O)cc2O)C3)O1,ESR1,array formation,PRL-HeLa,,baseline: EC50 ERβ over EC50 ERα,selectivity ratio,0.0939
CN(C)C(=O)C(CCN1CCC(O)(c2ccc(Cl)cc2)CC1)(c1ccccc1)c1ccccc1,"Calcium-activated potassium channel subunit alpha-1, with LRRC26 γ1 subunit (KCNMA1, Homo sapiens, UniProt Q12791)","BK channel conductance, inside-out patch clamp",,"BKα/γ1, Vm 70 mV, nominally Ca2+-free",,Hill coefficient,0.755 ± 0.079
CC(C)NCC(O)COc1cccc2ccccc12 (centres unmarked),Glutamate receptor 2,"ion current, positive allosteric modulator, SyncroPatch patch clamp",HEK293,10 µM,,potentiation,99%
Nc1ccn([C@H]2C[C@H](O)[C@@H](COP(=O)(O)OP(=O)(O)OP(=O)(O)O)O2)c(=O)n1,"Genome polyprotein, NS5B (Hepatitis C virus genotype 1b, UniProt Q9WMX2)","nucleotide incorporation, substrate",,,,Vmax,0.72 fraction per time
COc1ccc(C(=O)N[C@@H]2CCc3c(C#N)cccc32)cc1,"WD repeat-containing protein 91 WD40 domain, residues 392–747","binding, SPR single-concentration screen",,45 µM,,SPR response,2.7 RU and 10.1 RU
OCc1ccccc1O[C@@H]1O[C@H](CO)[C@@H](O)[C@H](O)[C@H]1O,"bgl1 (Penicillium oxalicum, UniProt A0A7D7KIC3)",,"Penicillium oxalicum, culture supernatant","pH 5, 50 °C",,substrate inhibition constant,8.98 mg/mL
O=C(O)C1CCCNC1 (centres unmarked),"SLC6A6 (Homo sapiens, UniProt P31641, G62A)","binding, microscale thermophoresis",,"500 µM, room temperature, with: 50 nM labelled protein",higher = more binding,normalised MST signal,0.511
C=CC(=O)N1CCC(COCC(=O)N2CCN(c3nc(-c4cnc(N)nc4C(F)F)nc(N4CCOC[C@@H]4C)n3)CC2)CC1,"CAMK2D (Homo sapiens, UniProt Q13557)",KINOMEscan,,1 µM,,remaining binding,100%
Oc1ccc2c(c1)OC[C@H]1c3cc4c(cc3O[C@@H]21)OCO4,ESR1,array formation,PRL-HeLa,,baseline: EC50 ERβ over EC50 ERα,selectivity ratio,0.783
O=C(O)/C=C/c1ccc(O)c(O)c1,Genome polyprotein NS3 helicase domain,"DNA binding, inhibitor",hepatitis C virus,"100 µM, with: Cy5-dT15 DNA",,inhibition,0%
COc1cc(/C=C/C(=O)C(=Cc2ccccc2)C(=O)/C=C/c2ccc(O)c(OC)c2)ccc1O,haemin,"binding, isothermal titration calorimetry",,"pH 7.4, 37 °C",,ΔS,-219 ± 7.21 J/(mol·K)
O=C1NC(=O)C(c2ccccc2)(c2ccccc2)N1,Glutamate receptor 2,"ion current, positive allosteric modulator, SyncroPatch patch clamp",HEK293,3 µM,,potentiation,93%
CC[C@H](C)[C@H](NC(=O)[C@H](CCCCN)NC(=O)CNC(=O)[C@@H](NC(=O)[C@@H](NC(=O)[C@H](CCSC)NC(=O)[C@H](Cc1c[nH]cn1)NC(=O)CN)[C@@H](C)O)C(C)C)C(=O)N[C@@H](Cc1ccc(O)cc1)C(=O)N[C@@H](C)C(=O)N[C@@H](C)C(=O)N[C@@H](C)C(=O)N[C@@H](CCSC)C(=O)N[C@H](C(=O)N[C@@H](CCSC)C(=O)N[C@@H](CCC(=O)O)C(=O)N[C@@H](Cc1ccc(O)cc1)C(=O)N[C@@H](Cc1ccc(O)cc1)C(=O)N[C@@H](CCCNC(=N)N)C(=O)N[C@@H](CCC(N)=O)C(=O)N[C@@H](CO)C(=O)N[C@@H](CCCCN)C(=O)N[C@@H](C)C(=O)N[C@@H](CCCCN)C(=O)N[C@@H](CCCCN)C(=O)N[C@@H](CC(C)C)C(=O)N[C@@H](CCC(N)=O)C(=O)N[C@@H](C)C(=O)N[C@@H](CCSC)C(=O)N[C@@H](CCCNC(=N)N)C(=O)O)[C@@H](C)CC,"Calmodulin-1, Ca2+-bound C-lobe (CALM1, Homo sapiens, UniProt P0DP23)","binding, isothermal titration calorimetry",,"pH 7.4, 15 °C, C-lobe, CaV2.1 IQ domain, with: Ca2+",,ΔS,23 ± 0.5 cal/mol/K
O=C(NC1CCCS(=O)(=O)c2ccccc21)c1ccc2nc(O)cnc2c1 (centres unmarked),"WD repeat-containing protein 91 (Homo sapiens, UniProt A4D1P6)","binding, SPR steady state",,1.875 µM,,SPR response,13.6 RU
CC(=O)N[C@H](C(=O)N[C@@H](CC(N)=O)C(=O)N[C@@H](CCCCN)C(=O)N1CCC[C@H]1C(=O)N[C@@H](CC(C)C)C(=O)N1CCC[C@H]1C(=O)N1CCC[C@H]1C(=O)N[C@@H](CC(C)C)C(=O)N1CCC[C@H]1C(=O)N[C@H](C(=O)N[C@@H](C)C(N)=O)C(C)C)C(C)C,"Tyrosine-protein kinase Fyn, SH3 domain (FYN, Homo sapiens, UniProt P06241)","ligand binding, FTIR spectroscopy, refers to: asymmetric stretch band C",,"pH 7.0, FYN complex, with: 4 mM peptide",,wavenumber,2257.7 ± 0.4 cm⁻¹
Nc1ncnc2c1ncn2[C@@H]1O[C@H](COP(=O)(O)CP(=O)(O)OP(=O)(O)O)[C@@H](O)[C@H]1O,"P2X purinoceptor 1 (P2RX1, Homo sapiens, UniProt P51575)",calcium influx,,10 nM,baseline: ionomycin response,calcium influx,0%
C[C@]12CC[C@@H]3c4ccc(O)cc4C[C@@H](CCCCCCCCC[S+]([O-])CCCC(F)(F)C(F)(F)F)[C@H]3[C@@H]1CC[C@@H]2O (some centres unmarked),ESR1,"antagonist, CALUX reporter",U2OS,3e-09 µg/mL,,antagonist response,48.8%
O=C1C[C@@H](c2ccc(O)c(O)c2)Oc2cc(O)cc(O)c21,ESR1,array formation,PRL-HeLa,,baseline: EC50 ERβ over EC50 ERα,selectivity ratio,0.79
O=C(O)[C@@H]1C[C@@H](O)CN1,"N-alpha-acetyltransferase 80 (NAA80, Homo sapiens, UniProt Q93015)","substrate, DTNB",,"2 mM, 30 min, 37 °C, with: acetyl-CoA 500 µM",,product formation,3.02 µM
O=c1nc(SCc2cc(F)cc(C(F)(F)F)c2)nc(SCc2csc3ccc(Cl)cc23)[nH]1,"TOP2A (Homo sapiens, UniProt P11388)",DNA cleavage,,"15.6 µM, replicate 2",,linear DNA,0.51%
CCC1(O)CCCN(C(=O)c2ccc(-c3ccc(F)c(NC(=O)CCl)c3)cc2)C1 (centres unmarked),"DNA dC->dU-editing enzyme APOBEC-3A (Homo sapiens, UniProt P31941)","covalent adduct, intact protein MS",,"3 h, 1-fold, 25 µM",,unmodified protein,30% and 37%
CC[C@H](C)[C@H](NC(=O)[C@H](CCCCN)NC(=O)CNC(=O)[C@@H](NC(=O)[C@@H](NC(=O)[C@H](CCSC)NC(=O)[C@H](Cc1c[nH]cn1)NC(=O)CN)[C@@H](C)O)C(C)C)C(=O)N[C@@H](Cc1ccc(O)cc1)C(=O)N[C@@H](C)C(=O)N[C@@H](C)C(=O)N[C@@H](CCSC)C(=O)N[C@@H](CCSC)C(=O)N[C@H](C(=O)N[C@@H](CCSC)C(=O)N[C@@H](CCC(=O)O)C(=O)N[C@@H](C)C(=O)N[C@@H](Cc1ccc(O)cc1)C(=O)N[C@@H](CCCNC(=N)N)C(=O)N[C@@H](CCC(N)=O)C(=O)N[C@@H](CO)C(=O)N[C@@H](CCCCN)C(=O)N[C@@H](C)C(=O)N[C@@H](CCCCN)C(=O)N[C@@H](CCCCN)C(=O)N[C@@H](CC(C)C)C(=O)N[C@@H](CCC(N)=O)C(=O)N[C@@H](C)C(=O)N[C@@H](CCSC)C(=O)N[C@@H](CCCNC(=N)N)C(=O)O)[C@@H](C)CC,"Calmodulin-1, Ca2+-bound N-lobe (CALM1, Homo sapiens, UniProt P0DP23)","binding, isothermal titration calorimetry",,"N-lobe, CaV2.1 IQ domain, unit not given, with: Ca2+",baseline: wild-type IQ domain,ΔΔG,-1.56
CC[n+]1c(/C=C/C=C2/N(C)c3ccccc3C2(C)C)sc2ccccc21.[I-],Genome polyprotein NS3 helicase domain,"DNA binding, inhibitor",hepatitis C virus,"100 µM, with: Cy5-dT15 DNA",,inhibition,1%
CC[C@@H]1[C@H](F)C(=O)N[C@@H]1COc1nccc2cc(C(N)=O)c(OC)cc12,"WEE1 (Homo sapiens, UniProt P30291)","ATP-site probe binding, ActivX profiling",THP-1 cell lysate,"0.01 mM, Lys2 site",,inhibition,25.6%
N#Cc1cccc2c1CC[C@H]2NC(=O)c1ccc(S(=O)(=O)NCc2ccco2)cc1,"WD repeat-containing protein 91 WD40 domain, residues 392–747",SPR,,45 µM,,binding,56% and 48%
CC[C@@H]1Cc2cc(O)ccc2C2=C1c1ccc(O)cc1C[C@H]2CC,Genome polyprotein NS3 helicase domain,"DNA binding, inhibitor",hepatitis C virus,"100 µM, with: Cy5-dT15 DNA",,inhibition,0%
Nc1ccc(C(=O)O)cc1,"BEST1, with wild-type BEST1 (Homo sapiens, UniProt O76090, Q293K)","ion current, whole-cell patch clamp",HEK293 co-expressing mutant and wild-type,"concentration not given, voltage 60 mV",,current density,5.56 pA/pF and 8.58 pA/pF and 13 pA/pF and 14.7 pA/pF and 24.1 pA/pF and 8.49 pA/pF
NC(=O)c1cccc(N)c1,Genome polyprotein NS3 helicase domain,"DNA binding, inhibitor",hepatitis C virus,"100 µM, with: Cy5-dT15 DNA",,inhibition,0%
N#CC1CCN(C(=O)c2ccc(NC3COC3)cc2)CC1,"WD repeat-containing protein 91 WD40 domain, residues 392–747",SPR,,45 µM,,binding,-15% and -45%
Nc1ccn([C@H]2C[C@H](O)[C@@H](COP(=O)(O)OP(=O)(O)OP(=O)(O)O)O2)c(=O)n1,"POLL (Homo sapiens, UniProt Q9UGP5, Y505A)","substrate, primer extension gel",,"Y505A mutant, AP-site template",,Km,0.03 µM
Cc1cc(-n2c(-c3ccccc3Cl)nc3c(N4CCC(NS(=O)(=O)c5ccc(F)c(F)c5)CC4)ncnc32)no1,"CNR1 (Homo sapiens, UniProt P21554)","binding, [3H]CP55940 displacement",,,baseline: Ki CB2 over Ki CB1,selectivity ratio,> 20
CCCCCCCCCCCCCCCCCCOCC(COP(=O)([O-])OCC[N+](C)(C)C)OC (centres unmarked),Genome polyprotein NS3 helicase domain,"DNA binding, inhibitor",hepatitis C virus,"100 µM, with: Cy5-dT15 DNA",,inhibition,0%
Cc1ccc(N2CC(C(N)=O)CC2=O)cc1 (centres unmarked),"Transducin-like enhancer protein 4 (TLE4, Homo sapiens, UniProt Q04727)","binding, affinity selection mass spectrometry",,,baseline: other proteins in batch,log fold enrichment,-0.114
O=O,"HIF1AN (Homo sapiens, UniProt Q9NWT6, Y93A)","substrate, MALDI-TOF MS",,"pH 7.00, 37.0 °C, mutant Y93A, with: CTAD peptide 80 µM, 2-oxoglutarate 100 µM",,Km,440 ± 150 µM

# Repeated from above:
SMILES,target,test,system,conditions,scale,endpoint,value
Nc1ccc(C(=O)O)cc1,"BEST1, with wild-type BEST1 (Homo sapiens, UniProt O76090, Q293K)","ion current, whole-cell patch clamp",HEK293 co-expressing mutant and wild-type,"concentration not given, voltage 60 mV",,current density,5.56 pA/pF and 8.58 pA/pF and 13 pA/pF and 14.7 pA/pF and 24.1 pA/pF and 8.49 pA/pF
O=C1C[C@@H](c2ccc(O)c(O)c2)Oc2cc(O)cc(O)c21,ESR1,array formation,PRL-HeLa,,baseline: EC50 ERβ over EC50 ERα,selectivity ratio,0.79
CC[C@@H]1Cc2cc(O)ccc2C2=C1c1ccc(O)cc1C[C@H]2CC,Genome polyprotein NS3 helicase domain,"DNA binding, inhibitor",hepatitis C virus,"100 µM, with: Cy5-dT15 DNA",,inhibition,0%
